{"data": "Measurements gathered from unrelated publications", "note": "Every numbered part comes from another study and shows a few of its results, in no order."}
{"data": "Series 1", "target": "Ras GTPase-activating protein-binding protein 1, C-terminal RGG region (G3BP1, Homo sapiens, UniProt Q13283)", "technique": "RNA Bind-n-Seq", "form": "RNA", "sample": "in vitro", "concentration": "1 µM", "notes": "whole 134-nt RNA, ends assumed", "with": "150 mM KCl", "relative to": "input library", "direction": "higher = stronger binding", "all sequences stand within": "GGGAGUUCUACAGUCCGACGAUC … UGGAAUUCUCGGGUGUCAAGG", "UniProt Q13283, sequence (whole entry, looked up)": "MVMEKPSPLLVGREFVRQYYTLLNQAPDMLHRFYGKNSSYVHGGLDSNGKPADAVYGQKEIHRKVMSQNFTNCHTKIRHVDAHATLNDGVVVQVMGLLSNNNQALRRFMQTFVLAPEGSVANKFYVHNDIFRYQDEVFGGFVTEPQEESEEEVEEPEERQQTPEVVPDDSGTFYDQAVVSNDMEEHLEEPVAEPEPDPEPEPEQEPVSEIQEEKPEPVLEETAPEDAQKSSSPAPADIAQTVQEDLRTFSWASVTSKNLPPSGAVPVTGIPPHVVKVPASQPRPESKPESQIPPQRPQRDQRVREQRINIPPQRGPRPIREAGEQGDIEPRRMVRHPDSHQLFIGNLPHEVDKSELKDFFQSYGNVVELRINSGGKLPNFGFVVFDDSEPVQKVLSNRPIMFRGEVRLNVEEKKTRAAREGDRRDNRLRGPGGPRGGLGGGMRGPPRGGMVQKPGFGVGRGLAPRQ"}
{"Sequence": "CAAGUCCUGUGCUACACAUCGUAUGUACCGAAUCGGGGAAAGGGAAAGGGAAAGGGAAAGUAUUAUGUUACGCCGUUCGGAUCUGCACUU", "log2 enrichment": 1.39}
{"Sequence": "GUCCUGUGCUACACAUCGUAUGUACCGAAUCAAAUUUUUUUAAACCCAAACCCCCAAAAAAGUAUUAUGUUACGCCGUUCGGAUCUGCAC", "log2 enrichment": -1.15}
{"Sequence": "UAUUGAUGCAUUUGACCCUACACUGGCUCCAGCCACAGGAACUCCUGUUGUCGGGGGACUAACCUAUCGAGAAGGCAUGUAUAUUGCUGA", "log2 enrichment": -1.16}
{"Sequence": "UGGGAGGUGGAUUUUGUUUAUAUUUUUAGCUCAUUUCCAGGGGUGGGAAUUUUUUUUUAAUAUGUGUCAUGAAUAAAGUUGUUUUUGAAA", "log2 enrichment": 3.45}
{"Sequence": "GUCCUGUGCUACACAUCGUAUGUACCGAAUCGGGAAAAAAAGGGAAAAAAAGGGUGGGAAAGUAUUAUGUUACGCCGUUCGGAUCUGCAC", "log2 enrichment": 0.167}
{"Sequence": "UGGGAGGUGGAUUUUGUUUAUUUUUUUAGCUCAUUUCCAGGGGUGGGAAUUUUUUUUUAAUAUGUGUCAUGAAUAAAGUUGAUUUUGAAA", "log2 enrichment": 3.49}
{"Sequence": "CACAGACAACACGCACCCACACAGUCACAGAGGGAAGGGGUUGGGAUGGGGACAGGGUGCACAGCAGGGCGGGGUAGGACCCCAGCCCCU", "log2 enrichment": -0.518}
{"Sequence": "GCAGGAAGUAAAAACAAAUGGAAAUGCUUCGGAUAGUGGCAGGGGUGGGGGUUGCUAAGGAAAGGGUGGGAUGGGAGUGGUUAAAGAGUU", "log2 enrichment": 1.71}
{"Sequence": "CAAGUCCUGUGCUACACAUCGUAUGUACCGAAUCGGGUUUUUGGGAGGGAAAGGGAAAGUAUUAUGUUACGCCGUUCGGAUCUGCACUUC", "log2 enrichment": 1.59}
{"Sequence": "UGGCCCUGGUGGCAUGCGGGGAGGAAGAGGUGGCCUCAUGGAUCGUGGUGGUCCCGGUGGAAUGUUCAGAGGUGGCCGUGGUGGAGAAAG", "log2 enrichment": 3.41}
{"data": "Series 2", "target": "RNA binding protein fox-1 homolog 2, RRM domain, GST-SBP tag (RBFOX2, Homo sapiens, UniProt O43251-10, residues 100-194)", "technique": "RNA Bind-n-Seq", "form": "RNA", "sample": "in vitro", "concentration": "365 nM", "notes": "natural RNA segment, single round, ends assumed", "relative to": "no-protein control", "direction": "higher = stronger binding", "all sequences stand within": "GGGAGUUCUACAGUCCGACGAUC … UGGAAUUCUCGGGUGCCAA", "Residues (chain)": "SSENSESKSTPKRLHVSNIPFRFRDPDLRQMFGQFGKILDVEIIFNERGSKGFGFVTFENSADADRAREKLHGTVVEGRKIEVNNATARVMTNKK"}
{"Sequence": "AUAAGAACACUAGCCCAAAAGGUCUAUGCAGUAGUUAAGUAGUGCUUUUGCUUAUUAUAGGGUGCUCUGAGGGUCUUCUCUGUGUCCUCUGACCCAAGACAAAAUGCACA", "RBNS enrichment (R)": 0.39}
{"Sequence": "AGCAGUGGCUCAGCUAAGUGCUCCCCCUAGCUCCCAUCUCAGGAGACCAAAUCUCACAGAAAAAUAGGCACUUUGGGCCAAAAGCUCUAAUGGAACAUUUUUAGUGGUGA", "RBNS enrichment (R)": 0.173}
{"Sequence": "CCUCUUGUUAGAAAAGUCUGUGUUUAUAUACAGGCUGUAAGUUUGUGAUUGAUAAAAAGAAGAUGAGUGUUAAUUAGCCUCCAGUGAAAAUAUACUGAAAGCCUGUUUUC", "RBNS enrichment (R)": 0.532}
{"Sequence": "GAACCCCCGAAGACGGAACCUCACAGUCUUCCAUGUUCCCUUCUUAACUGUCGUGUGGCUCGUUGCUAAAUCAUGACAAUGGCUGCCUAUCUGCUGCUUCUUAGGUUGCU", "RBNS enrichment (R)": 0.305}
{"Sequence": "CUUUAUUUUAUUUAAAGCAUCUGUUUAAUGCAACUUUUAAUCAGAUUUUGCAAAGGGUAUGUAUGUAUUUUAAUAUAGUCUGACCUGAAUUUAUAUGUUUUUAGCUUUAG", "RBNS enrichment (R)": 1.29}
{"Sequence": "ACAGGUGCAUGAGGGUUACACCCGUCACCUGGGUCUGCCGGGAUGGGUUGGGGGGGCAGGUGCCAGGCCUCACUGCUGUGAAUCUGCCACGCCUGGGGGUCCUAGAGGCU", "RBNS enrichment (R)": 0.515}
{"Sequence": "AGAUGGCUACAGGAGCUUUUGGACUCACAGCCUCUGCUCUAGAGGUGUUGUGUAUGGGCUGCUAAUUGUUAUGAAUAAAAUACCCAACCCUAGGCUGCAGAGAAGCCCGU", "RBNS enrichment (R)": 1.33}
{"Sequence": "GACCAAGCUGUAGCCUCCACUGGCCCCAUCACUGCCAACUGCAGGGGGCCCCUCGGGCCUCACUUGCCCUGAGCCCAGGAGUCCAAGGGCAGGGUGGGUCCAGCCUUGAG", "RBNS enrichment (R)": 0.558}
{"Sequence": "AGCCCUGCUAAGUGACUGACCACUGUUUAGAAUGUCCAGAAUCUGAUGUCCAUCUGUCCCUGUGUCUUCUGUCCUCUUUCAGCUAGUUUAGGCUUAUGCCUAGAGUCACC", "RBNS enrichment (R)": 0.609}
{"Sequence": "CUUUUCUGUGGAUUCUCUCAGUGGACCCACACCAUCUCUAUGUCUCUCCACUCUCCUGCCUUCAGCCAUAGCAAAGAAUCCUUCCAAAAUCAAACUCUUCACUUUUUUGA", "RBNS enrichment (R)": 0.702}
{"Sequence": "UCCUUAGCGCAUUAAUGUGAUGCUCACUCUGUGUUAAAACUGCAGCCGUUGUCUUUCUCAACUGCUACUGUCACGUUGCUUUCAAGAAAACAUUUUUUUUCAUUCCAGAC", "RBNS enrichment (R)": 0.477}
{"Sequence": "UAUAGUUUGCACUUUUUAAUCUAAAGUCAUCCCUUCUGAGUGAAAUUUGCUCAUAAAGCAUUUGGAUACUAAGCCAUUAUUUGCCAUUUUGGGUACUUUAUACAAAGAAA", "RBNS enrichment (R)": 0.436}
{"data": "Series 3", "target": "Histone acetyltransferase KAT6A, winged helix 2, GST fusion (KAT6A, Homo sapiens, UniProt Q92794, residues 85-181)", "technique": "protein binding microarray", "form": "double-stranded DNA, one strand shown", "sample": "in vitro", "concentration": "not given", "notes": "8-mer, flanks averaged, mean of 2 arrays, mostly near background", "relative to": "not given", "direction": "higher = stronger binding", "Residues (chain)": "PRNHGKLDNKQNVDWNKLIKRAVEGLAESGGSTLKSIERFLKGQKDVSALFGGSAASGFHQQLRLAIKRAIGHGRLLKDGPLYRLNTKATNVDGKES"}
{"Sequence": "AATTTCTA", "E-score": 0.0406}
{"Sequence": "CGATCAGC", "E-score": 0.133}
{"Sequence": "GCTAACAA", "E-score": 0.0294}
{"Sequence": "GAGCAAAC", "E-score": 0.101}
{"Sequence": "AAAGGTGG", "E-score": -0.0991}
{"Sequence": "CGCCCACA", "E-score": 0.219}
{"Sequence": "ACACCGTC", "E-score": 0.0261}
{"Sequence": "ATGCGATC", "E-score": 0.105}
{"Sequence": "CCATCGCC", "E-score": 0.0602}
{"Sequence": "CCTTTCAA", "E-score": 0.0201}
{"Sequence": "ATTCCGCA", "E-score": 0.0618}
{"Sequence": "ATTTTGTG", "E-score": 0.148}
{"Sequence": "GATTCTGA", "E-score": 0.0938}
{"Sequence": "GGTAGTGA", "E-score": 0.0444}
{"Sequence": "TATCCGAA", "E-score": -0.0219}
{"Sequence": "ATCTTAAA", "E-score": 0.112}
{"Sequence": "CACTGGGG", "E-score": 0.065}
{"data": "Series 4", "target": "Cyclic AMP-dependent transcription factor ATF-1, full length (ATF1, Homo sapiens, UniProt P18846, residues 1-271)", "technique": "protein-binding microarray", "form": "hairpin DNA", "sample": "in vitro", "concentration": "not given", "notes": "whole hairpin DNA, median over replicate spots", "relative to": "not given", "direction": "higher = stronger binding", "Residues (chain)": "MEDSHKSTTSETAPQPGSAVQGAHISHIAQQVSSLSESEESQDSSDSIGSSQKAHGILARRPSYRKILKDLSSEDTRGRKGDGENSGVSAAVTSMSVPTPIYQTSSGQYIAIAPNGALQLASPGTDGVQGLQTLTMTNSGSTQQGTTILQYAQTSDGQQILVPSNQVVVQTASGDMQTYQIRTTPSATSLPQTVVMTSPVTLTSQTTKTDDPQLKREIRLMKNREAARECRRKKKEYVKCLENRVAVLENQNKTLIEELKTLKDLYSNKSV"}
{"Sequence": "GAGGCCCGATGACGTCAGCCTCCTGGCTGACGTCATCGGGCCTCACACTC (5mC at 7)", "median fluorescence": "16700 a.u."}
{"Sequence": "GAGGCCGCATGACGTCAGCCTCCTGGCTGACGTCATGCGGCCTCACACTC (5mC at 8)", "median fluorescence": "13300 a.u."}
{"Sequence": "GAGGCCGGATGAAGTCAGCCTCCTGGCTGACTTCATCCGGCCTCACACTC", "median fluorescence": "3280 a.u."}
{"Sequence": "GAGGCCGGCTGCCGTCAGCCTCCTGGCTGACGGCAGCCGGCCTCACACTC", "median fluorescence": "3680 a.u."}
{"Sequence": "GAGGCCGGATGACGCCAGCCTCCTGGCTGGCGTCATCCGGCCTCACACTC", "median fluorescence": "5400 a.u."}
{"Sequence": "GAGGCCGGCTGACGTCAGCCTCCTGGCTGACGTCAGCCGGCCTCACACTC (5mC at 38)", "median fluorescence": "10200 a.u."}
{"Sequence": "GAGGCCGGAGGACGTCAGCCTCCTGGCTGACGTCCTCCGGCCTCACACTC", "median fluorescence": "4540 a.u."}
{"Sequence": "GAGGCCGAATGACGTCAGCCTCCTGGCTGACGTCATTCGGCCTCACACTC", "median fluorescence": "13100 a.u."}
{"Sequence": "GAGGCCGGCTGACGTCGGCCTCCTGGCCGACGTCAGCCGGCCTCACACTC (5mC at 16 28)", "median fluorescence": "5860 a.u."}
{"Sequence": "GAGGCCGACGACGTCCGGCCTCCTGGCCGGACGTCGTCGGCCTCACACTC (5mC at 9 15 28 35)", "median fluorescence": "3700 a.u."}
{"Sequence": "GAGGCCGACGACGTCCGGCCTCCTGGCCGGACGTCGTCGGCCTCACACTC (5mC at 9 15 16 35)", "median fluorescence": "3320 a.u."}
{"Sequence": "GAGGCCGGATGACGTCAGCCTCCTGGCTGACGTCATCCGGCCTCACACTC (5mC at 38)", "median fluorescence": "15800 a.u."}
{"Sequence": "GAGGCCGGATGACGTGAGCCTCCTGGCTCACGTCATCCGGCCTCACACTC (5mC at 29)", "median fluorescence": "8870 a.u."}
{"Sequence": "GAGGCCGGACGACGTCAGCCTCCTGGCTGACGTCGTCCGGCCTCACACTC (5mC at 10 34)", "median fluorescence": "6300 a.u."}
{"Sequence": "GAGGCCGGATGACATCAGCCTCCTGGCTGATGTCATCCGGCCTCACACTC", "median fluorescence": "4310 a.u."}
{"Sequence": "GAGGCCGGATAACGTCAGCCTCCTGGCTGACGTTATCCGGCCTCACACTC", "median fluorescence": "4640 a.u."}
